# Measured values gathered from unrelated publications.
# Every numbered part comes from another study and shows a few of its results, in no order.

# Study 1
# Target: Interferon regulatory factor 5, full length, phosphomimetic (IRF5, Homo sapiens, UniProt Q13568-2, residues 1-514, K96S/S451D/S453D/S456D/S462D)
# Method: protein-binding microarray
# Molecule type: double-stranded DNA, one strand shown
# Sample: in vitro
# Concentration: 250 nM
# Notes: 60-bp whole probe
# Together with: salmon DNA 0.4 mg/ml
# Relative to: random background probes
# Direction: higher = stronger binding
# Shared flanks, not repeated: GCCTAGCAC … GTCTTGATTCGCTTGACGCTGCTG
Oligonucleotide,log fluorescence [z-score]
TCATGTATTTGTCCCTAACTGTGCTAG,0.345
GACGGACTGCTACTGCTGAAGTGCTAG,-0.55
TCAAATACAAGTTTCTCACTGTGCTAG,0.977
TTAGGAGTGGGGTATCGGTTAGTGCTA,2.33
GACGGACTGGACGTTCGGGACGTGCTA,-0.437
TTAGATCTCCGTCTCGATTAGTGCTAG,0.37
TTAGATATCGGACTGGGTTAGTGCTAG,0.919

# Study 2
# Target: Histone acetyltransferase KAT6A, winged helix 1, GST fusion (KAT6A, Homo sapiens, UniProt Q92794, residues 1-85)
# Method: protein binding microarray
# Molecule type: double-stranded DNA, one strand shown
# Sample: in vitro
# Concentration: not given
# Notes: 8-mer, flanks averaged, mean of 2 arrays, mostly near background
# Relative to: not given
# Direction: higher = stronger binding
# Construct (chain): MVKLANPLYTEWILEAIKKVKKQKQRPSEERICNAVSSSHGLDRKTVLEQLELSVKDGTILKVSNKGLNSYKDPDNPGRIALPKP
Oligonucleotide,E-score
AAGACGCG,0.262
ACACAGGG,-0.00238
ATCACGAT,-0.143
AATGAAGT,-0.23
CAAGATGG,-0.209
GCGAAGGA,-0.00394
GTTACTGA,0.162
CATATCGG,0.0989
CCGTTGAA,-0.0298
GGCACACC,-0.0649
ATGCAACC,-0.119

# Study 3
# Target: RING finger protein unkempt homolog, zinc fingers 1-6, GST-SBP tag (UNK, Homo sapiens, UniProt Q9C0B0, residues 30-357)
# UniProt Q9C0B0, sequence (30-357, looked up): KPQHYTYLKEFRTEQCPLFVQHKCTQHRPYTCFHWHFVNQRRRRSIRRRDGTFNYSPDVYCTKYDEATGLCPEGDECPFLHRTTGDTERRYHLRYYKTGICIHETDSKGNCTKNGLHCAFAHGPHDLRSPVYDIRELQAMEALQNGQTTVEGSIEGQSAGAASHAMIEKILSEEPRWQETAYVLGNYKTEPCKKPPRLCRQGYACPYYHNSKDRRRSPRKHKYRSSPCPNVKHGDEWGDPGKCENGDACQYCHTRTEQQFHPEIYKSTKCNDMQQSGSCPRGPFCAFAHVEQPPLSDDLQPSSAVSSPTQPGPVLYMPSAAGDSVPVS
# Method: RNA Bind-n-Seq
# Molecule type: RNA
# Sample: in vitro
# Concentration: not given
# Notes: RNA with constant flanks, human and mouse sites, ends assumed
# Relative to: input RNA pool
# Direction: higher = stronger binding
Oligonucleotide,bound/input enrichment
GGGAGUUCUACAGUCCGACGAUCCUAAAUACCAUUCCAUUGUUUGUGCAGCUGCUUUAUUCUCCCAUUGAAAACAUCCAAAGAGUAGCUGCAGGGGUCCUCUGUGAACUUGCUCAGGACAAGGAAGCUGCAGAAGCUAUUGAACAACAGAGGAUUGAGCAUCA,0.324 ratio
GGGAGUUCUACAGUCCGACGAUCGGGGUGUUCCAGUCUACAGACACCUGCUAUGUCCUGUCCUUCGCAAUCAUAAUGCUGAACACCAGCCUACACAACCCCAAUGUCAAAGACAAGCCUACGGUGGAGAGAUUCAUCGCCAUGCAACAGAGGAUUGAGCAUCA,0.168 ratio
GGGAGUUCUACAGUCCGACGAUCCAGAACUUACGGCCAUGCUGAAGUUGCAGUUUCAUUCAGAUGCUACCUAAAGUUUAUGUUACUAGAGUAAAAAGAUCUCACAGUGAGUUGGUUUGAUAUUUAUAUUGUGGUUCAUGUUUGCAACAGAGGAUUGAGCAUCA,0.39 ratio
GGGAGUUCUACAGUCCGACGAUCAAAGGACUUACUGAGCAGCAAAAGGAAGGCAUCCGCAUGGUGACAAGGGUGAUGCUGUCCUUAGAAGGCGAAGACGGGCUGGAUGAAAUUUAUUCCUUCAGUGAGAGUCUACGACAACUGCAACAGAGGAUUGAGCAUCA,0.189 ratio
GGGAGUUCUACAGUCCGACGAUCUAUCAAAACAUGGACAAGACUAAGACAGAUUAUACCAGAAUAAAGAGCCUCAGCAUCAAUGUGAAUUUGGGAAACAAAGAAGUGAUGGAUACUACUAAAAGUCAAGUUAGAGAUUAUCCACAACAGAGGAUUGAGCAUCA,0.209 ratio

# Single results of other studies
Substance,target,assay,test system,setting,scale,quantity,result
"PhoQ, residues 284 288 289 292 302 303 GNNTDL","PhoP, residues 12 14 15 18 19 QWHVF (Escherichia coli, UniProt P23836)","Sort-seq, measured: YFP reporter",E. coli,"PhoQ-PhoP variant library, together with: 10 µM Mg2+","relative to: high Mg2+ state, higher = stronger signaling",fold induction,3.59

# For quick reference, copied from above (study 3):
Oligonucleotide,bound/input enrichment
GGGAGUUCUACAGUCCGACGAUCGGGGUGUUCCAGUCUACAGACACCUGCUAUGUCCUGUCCUUCGCAAUCAUAAUGCUGAACACCAGCCUACACAACCCCAAUGUCAAAGACAAGCCUACGGUGGAGAGAUUCAUCGCCAUGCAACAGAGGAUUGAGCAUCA,0.168 ratio
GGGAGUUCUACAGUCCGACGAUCCAGAACUUACGGCCAUGCUGAAGUUGCAGUUUCAUUCAGAUGCUACCUAAAGUUUAUGUUACUAGAGUAAAAAGAUCUCACAGUGAGUUGGUUUGAUAUUUAUAUUGUGGUUCAUGUUUGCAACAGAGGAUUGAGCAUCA,0.39 ratio
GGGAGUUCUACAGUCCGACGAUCAAAGGACUUACUGAGCAGCAAAAGGAAGGCAUCCGCAUGGUGACAAGGGUGAUGCUGUCCUUAGAAGGCGAAGACGGGCUGGAUGAAAUUUAUUCCUUCAGUGAGAGUCUACGACAACUGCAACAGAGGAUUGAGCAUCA,0.189 ratio
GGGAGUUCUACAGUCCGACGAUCUAUCAAAACAUGGACAAGACUAAGACAGAUUAUACCAGAAUAAAGAGCCUCAGCAUCAAUGUGAAUUUGGGAAACAAAGAAGUGAUGGAUACUACUAAAAGUCAAGUUAGAGAUUAUCCACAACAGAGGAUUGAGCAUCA,0.209 ratio
